# Results collected from several papers.
# Lines come from different studies, so protocols differ. ± marks the error that the study gave.
# Chain of UniProt Q9UKF6 (whole entry, looked up): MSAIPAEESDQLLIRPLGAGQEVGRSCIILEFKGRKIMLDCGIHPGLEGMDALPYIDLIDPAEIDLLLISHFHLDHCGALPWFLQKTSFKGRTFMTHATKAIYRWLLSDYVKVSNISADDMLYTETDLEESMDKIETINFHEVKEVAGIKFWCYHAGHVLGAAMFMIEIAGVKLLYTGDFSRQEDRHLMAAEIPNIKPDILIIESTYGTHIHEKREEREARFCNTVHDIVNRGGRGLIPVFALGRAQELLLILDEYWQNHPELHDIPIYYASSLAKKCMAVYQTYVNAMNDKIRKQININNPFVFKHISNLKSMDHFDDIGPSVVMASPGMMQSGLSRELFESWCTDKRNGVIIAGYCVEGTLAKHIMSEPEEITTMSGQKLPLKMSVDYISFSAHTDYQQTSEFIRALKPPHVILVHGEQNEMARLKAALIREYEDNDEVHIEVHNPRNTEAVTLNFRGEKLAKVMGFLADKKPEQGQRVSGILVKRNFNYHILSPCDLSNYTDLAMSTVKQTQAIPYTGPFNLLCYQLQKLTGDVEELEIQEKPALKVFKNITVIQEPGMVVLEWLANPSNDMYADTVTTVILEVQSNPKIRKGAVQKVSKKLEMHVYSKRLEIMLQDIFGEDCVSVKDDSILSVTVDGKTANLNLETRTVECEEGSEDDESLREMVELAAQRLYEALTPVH
# Chain of UniProt Q86TI2 (whole entry, looked up): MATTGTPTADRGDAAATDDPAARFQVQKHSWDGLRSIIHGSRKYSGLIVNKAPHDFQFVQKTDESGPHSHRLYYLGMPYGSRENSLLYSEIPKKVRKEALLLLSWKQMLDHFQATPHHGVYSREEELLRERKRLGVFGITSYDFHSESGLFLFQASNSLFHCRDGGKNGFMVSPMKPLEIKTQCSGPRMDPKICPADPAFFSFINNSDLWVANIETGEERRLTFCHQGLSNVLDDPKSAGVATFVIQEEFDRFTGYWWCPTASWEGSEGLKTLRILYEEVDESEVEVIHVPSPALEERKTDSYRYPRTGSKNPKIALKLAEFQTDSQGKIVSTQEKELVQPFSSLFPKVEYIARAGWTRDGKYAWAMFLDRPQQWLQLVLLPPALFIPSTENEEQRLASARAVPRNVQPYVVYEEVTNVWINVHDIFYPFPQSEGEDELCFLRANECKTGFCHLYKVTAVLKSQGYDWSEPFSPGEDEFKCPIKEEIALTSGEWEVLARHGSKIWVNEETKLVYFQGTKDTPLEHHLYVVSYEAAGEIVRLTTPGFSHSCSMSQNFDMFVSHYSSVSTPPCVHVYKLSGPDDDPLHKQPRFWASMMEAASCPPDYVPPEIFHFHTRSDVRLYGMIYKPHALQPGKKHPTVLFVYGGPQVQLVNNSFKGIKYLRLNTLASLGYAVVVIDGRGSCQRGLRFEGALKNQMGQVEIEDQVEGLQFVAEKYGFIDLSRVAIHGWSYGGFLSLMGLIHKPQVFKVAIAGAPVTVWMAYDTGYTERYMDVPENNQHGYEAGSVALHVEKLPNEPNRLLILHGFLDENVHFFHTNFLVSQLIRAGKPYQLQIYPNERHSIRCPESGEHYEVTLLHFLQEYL
# Chain of UniProt Q06187 (whole entry, looked up): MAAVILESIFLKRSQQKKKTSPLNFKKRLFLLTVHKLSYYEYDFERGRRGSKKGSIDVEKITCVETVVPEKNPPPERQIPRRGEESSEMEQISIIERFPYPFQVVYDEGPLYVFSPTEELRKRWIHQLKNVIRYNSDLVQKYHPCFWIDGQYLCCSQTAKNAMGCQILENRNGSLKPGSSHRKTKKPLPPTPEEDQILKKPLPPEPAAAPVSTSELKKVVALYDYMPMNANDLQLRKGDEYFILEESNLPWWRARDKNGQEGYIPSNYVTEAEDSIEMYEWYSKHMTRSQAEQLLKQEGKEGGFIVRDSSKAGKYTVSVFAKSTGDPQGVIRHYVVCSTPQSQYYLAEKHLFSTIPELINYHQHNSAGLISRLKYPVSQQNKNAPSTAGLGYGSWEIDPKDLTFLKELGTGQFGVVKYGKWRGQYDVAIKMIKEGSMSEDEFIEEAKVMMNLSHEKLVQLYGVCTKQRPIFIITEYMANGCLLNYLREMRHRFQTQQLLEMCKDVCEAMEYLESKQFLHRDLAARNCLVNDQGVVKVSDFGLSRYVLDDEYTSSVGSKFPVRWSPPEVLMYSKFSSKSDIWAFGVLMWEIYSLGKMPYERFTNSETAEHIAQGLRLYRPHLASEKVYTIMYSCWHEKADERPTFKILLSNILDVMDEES
# Chain of UniProt P28074 (whole entry, looked up): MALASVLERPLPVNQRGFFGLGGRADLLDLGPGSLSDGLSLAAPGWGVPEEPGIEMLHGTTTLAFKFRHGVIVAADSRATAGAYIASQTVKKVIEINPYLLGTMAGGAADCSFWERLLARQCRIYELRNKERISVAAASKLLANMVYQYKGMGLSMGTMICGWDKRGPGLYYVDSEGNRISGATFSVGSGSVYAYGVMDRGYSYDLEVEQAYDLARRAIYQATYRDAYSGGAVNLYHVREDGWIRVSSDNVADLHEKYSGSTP
# Chain of UniProt D0VWV4 (whole entry, looked up): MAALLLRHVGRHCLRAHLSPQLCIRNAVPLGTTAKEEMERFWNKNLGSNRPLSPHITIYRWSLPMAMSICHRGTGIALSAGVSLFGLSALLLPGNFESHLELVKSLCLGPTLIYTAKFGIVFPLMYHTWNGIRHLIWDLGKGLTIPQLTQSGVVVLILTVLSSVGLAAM
# Chain of UniProt Q0QF01 (whole entry, looked up): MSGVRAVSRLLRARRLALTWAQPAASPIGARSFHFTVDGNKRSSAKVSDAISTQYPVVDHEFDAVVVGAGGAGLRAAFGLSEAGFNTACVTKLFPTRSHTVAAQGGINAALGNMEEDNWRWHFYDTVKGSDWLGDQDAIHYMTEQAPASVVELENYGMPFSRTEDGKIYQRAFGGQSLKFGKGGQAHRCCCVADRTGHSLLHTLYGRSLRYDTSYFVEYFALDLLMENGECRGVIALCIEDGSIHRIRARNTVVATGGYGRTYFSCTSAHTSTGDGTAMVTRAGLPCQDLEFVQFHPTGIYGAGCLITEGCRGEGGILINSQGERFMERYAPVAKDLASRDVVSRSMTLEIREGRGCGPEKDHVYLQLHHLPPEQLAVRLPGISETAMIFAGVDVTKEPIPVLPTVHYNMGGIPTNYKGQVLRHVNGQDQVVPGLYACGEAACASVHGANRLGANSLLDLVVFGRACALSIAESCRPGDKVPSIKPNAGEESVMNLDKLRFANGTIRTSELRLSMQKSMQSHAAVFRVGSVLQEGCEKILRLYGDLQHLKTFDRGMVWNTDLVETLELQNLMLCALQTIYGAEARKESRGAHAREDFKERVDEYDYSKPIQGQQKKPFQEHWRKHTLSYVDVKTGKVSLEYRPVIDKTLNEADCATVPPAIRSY
# Chain of UniProt Q04760 (whole entry, looked up): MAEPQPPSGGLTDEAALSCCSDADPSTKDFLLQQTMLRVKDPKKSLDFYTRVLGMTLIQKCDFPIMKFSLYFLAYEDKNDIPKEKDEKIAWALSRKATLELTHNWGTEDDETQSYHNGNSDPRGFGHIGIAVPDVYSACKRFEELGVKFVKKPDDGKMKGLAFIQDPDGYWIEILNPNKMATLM
# Chain of UniProt Q99873 (whole entry, looked up): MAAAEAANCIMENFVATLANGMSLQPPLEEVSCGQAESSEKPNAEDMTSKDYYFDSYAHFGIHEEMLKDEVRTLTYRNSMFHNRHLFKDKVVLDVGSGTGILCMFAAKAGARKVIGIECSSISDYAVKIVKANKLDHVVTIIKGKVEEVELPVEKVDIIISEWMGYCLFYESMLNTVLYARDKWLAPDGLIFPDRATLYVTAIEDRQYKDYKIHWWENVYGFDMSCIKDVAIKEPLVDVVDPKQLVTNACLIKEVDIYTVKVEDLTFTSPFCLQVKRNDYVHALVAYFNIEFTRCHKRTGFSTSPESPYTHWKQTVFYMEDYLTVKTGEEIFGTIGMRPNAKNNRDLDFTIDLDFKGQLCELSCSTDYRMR
# Chain of UniProt A5GZW8 (whole entry, looked up): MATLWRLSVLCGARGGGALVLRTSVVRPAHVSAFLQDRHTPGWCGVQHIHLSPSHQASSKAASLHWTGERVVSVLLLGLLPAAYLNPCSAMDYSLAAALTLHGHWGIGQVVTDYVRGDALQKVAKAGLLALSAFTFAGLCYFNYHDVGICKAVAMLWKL
# Chain of UniProt Q01650 (whole entry, looked up): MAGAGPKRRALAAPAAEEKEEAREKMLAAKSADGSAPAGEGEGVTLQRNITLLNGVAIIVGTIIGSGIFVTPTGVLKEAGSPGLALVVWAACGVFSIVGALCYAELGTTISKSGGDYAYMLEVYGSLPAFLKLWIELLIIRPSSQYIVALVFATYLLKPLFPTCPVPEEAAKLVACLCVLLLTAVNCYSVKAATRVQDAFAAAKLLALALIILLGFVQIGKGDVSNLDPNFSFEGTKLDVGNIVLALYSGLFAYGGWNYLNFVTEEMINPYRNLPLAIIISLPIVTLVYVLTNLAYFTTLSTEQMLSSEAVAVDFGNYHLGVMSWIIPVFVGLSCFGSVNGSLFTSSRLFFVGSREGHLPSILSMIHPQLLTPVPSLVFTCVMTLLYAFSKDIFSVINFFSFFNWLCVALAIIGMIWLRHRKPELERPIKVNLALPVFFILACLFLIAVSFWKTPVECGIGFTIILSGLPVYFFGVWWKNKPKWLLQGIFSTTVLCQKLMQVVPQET
# Chain of UniProt Q7Z418 (whole entry, looked up): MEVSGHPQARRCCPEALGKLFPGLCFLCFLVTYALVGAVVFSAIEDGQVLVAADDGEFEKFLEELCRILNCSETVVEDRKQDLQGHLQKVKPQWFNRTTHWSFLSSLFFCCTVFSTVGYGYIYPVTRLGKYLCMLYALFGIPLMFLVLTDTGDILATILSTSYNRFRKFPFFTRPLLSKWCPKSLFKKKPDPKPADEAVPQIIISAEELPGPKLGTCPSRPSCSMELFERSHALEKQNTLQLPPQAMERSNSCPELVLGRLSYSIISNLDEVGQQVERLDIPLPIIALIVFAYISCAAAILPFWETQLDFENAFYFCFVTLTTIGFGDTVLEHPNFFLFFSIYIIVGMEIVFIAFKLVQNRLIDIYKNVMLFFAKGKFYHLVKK
SMILES,target,test,test system,setting,IC50 [µM]
N=C(N)NCCCC(N)C(=O)NCC(=O)NC(CCCNC(=N)NCCCSCC1OC(n2cnc3c(N)ncnc32)C(O)C1O)C(N)=O (stereo not drawn),"PRMT1 (Homo sapiens, UniProt Q99873)",inhibitor,,,15 ± 0.2
N=C(N)c1ccc(/N=N/Nc2ccc(C(=N)N)cc2)cc1,DNA substrate (25 bp),"DNA binding, ethidium bromide displacement",,,1.6 ± 0.1
O=C(Nc1ccccc1Nc1ccccc1)c1cccnc1Br,"Succinate dehydrogenase complex (Sus scrofa, UniProt A5GZW8+D0VWV4+Q007T0+Q0QF01)","enzyme activity, inhibitor, double-antibody sandwich ELISA",,,30
NS(=O)(=O)c1ccc(/N=N/c2cc3ccccc3c(C(=O)O)c2O)cc1,"GLO1 (Homo sapiens, UniProt Q04760)","enzyme activity, inhibitor",,,37.4
COc1cc(C(=O)O[C@@H]2Cc3c(O)cc(O)cc3O[C@@H]2c2ccc(O)c(O)c2)cc(O)c1O,"maltase, rat","enzyme activity, inhibitor",rat intestinal brush border vesicles,,60.3
C=C(NC(=O)C(=C)NC(=O)c1csc(C2=NC3c4csc(n4)C4NC(=O)c5csc(n5)C(C(C)(O)C(C)O)NC(=O)C5CSC(=N5)C(=CC)NC(=O)C(C(C)O)NC(=O)c5csc(n5)C3(CC2)NC(=O)C(CO)NC(=O)C(=C)NC(=O)C(C)NC(=O)C(C(C)CC)NC2C=Cc3c(C(C)O)cc(nc3C2O)C(=O)OC4C)n1)C(N)=O (stereo not drawn),"PSMB5 (Homo sapiens, UniProt P28074)","chymotrypsin-like activity, inhibitor",purified 20S proteasome,"15 min preincubation, 37 °C, added: Suc-Leu-Leu-Val-Tyr-AMC substrate",1.11 ± 0.06
N=C(N)NCCC[C@@H]1NC(=O)[C@H](Cc2c[nH]c3ccccc23)NC(=O)[C@H](CCCNC(=N)N)NC(=O)[C@H](Cc2c[nH]c3ccccc23)NC(=O)[C@H](CCCNC(=N)N)NC(=O)[C@H](Cc2c[nH]c3ccccc23)NC(=O)[C@H](CCCNC(=N)N)NC(=O)[C@H](Cc2c[nH]c3ccccc23)NC(=O)[C@H](CCCNC(=N)N)NC(=O)[C@H](Cc2c[nH]c3ccccc23)NC(=O)[C@H](CCCNC(=N)N)NC(=O)[C@H](Cc2c[nH]c3ccccc23)NC(=O)[C@H](CCCNC(=N)N)NC(=O)[C@H](Cc2c[nH]c3ccccc23)NC(=O)[C@H](CCCNC(=N)N)NC(=O)[C@H](Cc2c[nH]c3ccccc23)NC(=O)[C@H](CCCNC(=N)N)NC(=O)[C@H](Cc2c[nH]c3ccccc23)NC1=O,"BTK (Homo sapiens, UniProt Q06187)","enzyme activity, inhibitor",,,< 0.25
CC(C)NC(=O)NNS(=O)(=O)c1ccc2c(c1)n(C)c(=O)c(=O)n2C,"DPP9 (Homo sapiens, UniProt Q86TI2)","enzyme activity, inhibitor, fluorescence",,,> 100
CCCCCC[N+](CCCCCC)(CCCCCC)CCCCCC,"KCNK18 (Homo sapiens, UniProt Q7Z418)","ion current, inhibitor, patch clamp",,,0.5
O=C(CCc1cccc2c1B(O)OC2)Nc1cccc(N2CCOCC2)c1,"CPSF3 (Homo sapiens, UniProt Q9UKF6)","ligand displacement, FP",,,0.32
Cc1[nH]c2ccccc2c1CCNC(=O)c1cccs1,"ACTR2/ACTR3 (Bos taurus, UniProt A7MB62+P61157)","actin polymerization, inhibitor, pyrenyl-actin",,"3 µM actin, 30% pyrenyl, added: 5 nM Arp2/3 complex, 1 µM N-WASp-VCA",32
Nc1cc(COc2ccc3[nH]cc(CC(N)C(=O)O)c3c2)c2oc(-c3ccccc3)nc2c1 (stereo not drawn),"SLC7A5 (Homo sapiens, UniProt Q01650)","transporter uptake, inhibitor, radiometric",,,18
OC[C@H]1[C@@H](O)[C@@H](O)CN1Cc1ccc(I)cc1,"Golgi alpha-mannosidase IIb (Drosophila melanogaster, UniProt Q9VF33)",inhibitor,,added: p-nitrophenyl mannoside,52
O=C(O)C(CO)NCc1cc(Cl)c(OCc2cccc(-c3ccccc3)c2Br)cc1OCc1cccnc1 (stereo not drawn),"CD28/CD80 (Homo sapiens, UniProt P10747+P33681)","PD-1/PD-L1 interaction, inhibitor, ELISA",,,> 10
COC(=O)CCSc1nc2n(n1)C(c1cccc(OC)c1)C(C(=O)Nc1cncc(C)c1)=C(C)N2 (stereo not drawn),"MTOR (Homo sapiens, UniProt P42345)","enzyme activity, inhibitor, TR-FRET",,,0.0071
